Measured values of several laboratories.
Each numbered part is a random draw from the data of one study; scales do not carry over between parts.

Study 1
Target: RNA binding protein fox-1 homolog 2, RRM domain, GST-SBP tag (RBFOX2, Homo sapiens, UniProt O43251-10, residues 100-194)
Technique: RNA Bind-n-Seq
Form: RNA
Medium: in vitro
Concentration: 365 nM
Notes: natural RNA segment, single round, ends assumed
Relative to: no-protein control
Direction: higher = stronger binding
Endpoint: RBNS enrichment (R)
All sequences stand within: GGGAGUUCUACAGUCCGACGAUC … UGGAAUUCUCGGGUGCCAA
Residues (chain): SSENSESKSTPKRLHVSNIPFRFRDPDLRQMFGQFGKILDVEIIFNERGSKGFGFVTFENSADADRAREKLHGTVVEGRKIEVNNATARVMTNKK
AAAGCCAUAUUCCAGCAGUGAAACUUGUGCUAUAGUGUAUACCACCUGUACAUACAUUGUAUAGGCCAUCUGUAAAUAUCCCAGAGAACAAUCACUAUUCUUAAGCACUU: 0.351
GCACCCUGAUUUUUUUUUUUUUACUAUAACCAGGGUUUCAUUCUGUCUUUUUCCACUGAAGUGUGACAUUUUGUUAGUACAUUUCAGUGUAGUCAUUCAUUUCUAGCUGU: 0.566
UCCCAUGCCACAAAGCAUCUCUCCACCCCCUUUUCAAGGAAUGCAGUUCUACAAACUGAUCUCCUUAACCACAACCAAGAUAGGCAUGUCACCAUGUCAAUUCCCCUUUU: 0.427
CCUAACUGUGUGUUUUCAGGGACAAUGCCAUCCAUGUUUGUGCUGUAGACUUGCUGCUGCUGAAUCCUUUCUGGGGACUUUCUCAUCGGGCAGGGAGCAGAGGGCUUCUC: 0.683
GAGCUCAGUGGACCCACCCCGCUUGCUGAACCCUCACAGUUCUUGGGGUUGUCCAGCCUGGACUUGUAGCACACAUGUCCUGAAGCAAAGCUCCGGUGACUGCAUGAGCC: 2.94
GGAAACGUUUGAAAGUGUUUGUUUCCUUCAUAUGAACCUGUAAAAUGCUGUGUAGCUGGAGUUCACGCUCACAGCCUUUAGCGCUUUGUUGCUUGUUUUGUUUUAAUCUG: 0.632
ACUUGGGUAUUUCUCAGUUAACACACAUGCAAGGAGGAAGAGAGUUUUUUUGAACAAAAUGACUGGCUUUGACAAAACUAUCUUGCUCUUUUUAAAUGUCACUUGAUACU: 0.508
UUUGUUCUCAGCAUUUUCCUUUCUCUGUGAUCAUUGGCAUCCUGGGCGUUUCUUGCCCUCUGCUGACUACUGAUUGGAUUUUACCUAUGGCUUUCUGCAACUUGCUACUC: 0.417

Study 2
Target: Histone acetyltransferase KAT6A, winged helix 2, GST fusion (KAT6A, Homo sapiens, UniProt Q92794, residues 85-181)
Technique: protein binding microarray
Form: double-stranded DNA, one strand shown
Medium: in vitro
Concentration: not given
Notes: 8-mer, flanks averaged, mean of 2 arrays, mostly near background
Relative to: not given
Direction: higher = stronger binding
Endpoint: E-score
Residues (chain): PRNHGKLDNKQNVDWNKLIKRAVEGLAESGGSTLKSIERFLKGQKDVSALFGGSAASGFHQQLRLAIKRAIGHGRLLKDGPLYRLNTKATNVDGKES
CCAGTAAG: -0.117
AAACTGGT: 0.106
GGAGCCAC: 0.0317
CCTACTCG: 0.0152
AGTAGTTA: -0.223
GCACTTTA: -0.00128
AGGTCCGA: 0.0988
ACCAGCGA: 0.0188
CGGCAATC: 0.152
CTACTCGA: 0.0086
CGCATCAG: 0.174
ACTTCGTG: 0.109
CAAGACTG: -0.167
CACTGCCA: 0.234
CGAGCACA: 0.124
CTAGCAAG: -0.136
CCTTCGCA: 0.0367
AGAGTTCG: 0.000885
ATCGGCAA: 0.0836
CACCCGTC: 0.13
ACAGCTGC: -0.201
AGAGGGAG: -0.0975
ATTCACTC: 0.0852
CAACCGGG: 0.157
GAGACACC: -0.0426

Study 3
Target: Ras GTPase-activating protein-binding protein 1, C-terminal RGG region (G3BP1, Homo sapiens, UniProt Q13283)
UniProt Q13283, sequence (whole entry, looked up): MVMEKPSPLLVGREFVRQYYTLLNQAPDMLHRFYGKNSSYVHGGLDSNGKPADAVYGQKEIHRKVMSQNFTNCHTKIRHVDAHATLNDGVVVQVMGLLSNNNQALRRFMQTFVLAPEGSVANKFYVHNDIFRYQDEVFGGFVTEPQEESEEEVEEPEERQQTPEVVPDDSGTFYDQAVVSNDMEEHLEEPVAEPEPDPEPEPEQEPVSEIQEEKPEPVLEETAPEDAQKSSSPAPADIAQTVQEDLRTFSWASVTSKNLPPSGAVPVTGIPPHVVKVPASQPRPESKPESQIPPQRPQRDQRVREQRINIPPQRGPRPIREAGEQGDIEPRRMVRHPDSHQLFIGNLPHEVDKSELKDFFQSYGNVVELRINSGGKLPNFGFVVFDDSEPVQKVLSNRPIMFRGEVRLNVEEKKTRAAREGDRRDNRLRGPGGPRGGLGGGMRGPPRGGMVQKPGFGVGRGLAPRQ
Technique: RNA Bind-n-Seq
Form: RNA
Medium: in vitro
Concentration: 1 µM
Notes: whole 134-nt RNA, ends assumed
Added: 150 mM KCl
Relative to: input library
Direction: higher = stronger binding
Endpoint: log2 enrichment
All sequences stand within: GGGAGUUCUACAGUCCGACGAUC … UGGAAUUCUCGGGUGUCAAGG
AUUAAGGUCACCGUUGCAGGCCUGGCUGGAAAAGACCCAGUACAGUGUAGCCGUGAUGUGGUCAUUUGUCCUGAUGCCAGCCUUGAAGAU: -1.33
GCAGGAAGUAAAAACAAAUGGAAAUGCUUCGGAUAUUGGCAGGGGUGGGGGUUGCUAAGGAAAGGGUGGGAUGGGAGUGGGUAAAGAGUU: 1.91
CCUGUGCUACACAUCGUAUGUACCGAAUCGGGGUUUUUGGGGAAAAAGGGGAAAAAGGGGAAAGUAUUAUGUUACGCCGUUCGGAUCUGC: 0.793
UGGCCCUGGUGGCAUGCGGGGAGGAAGAGGUGGCCUCAUGGAUCGUGGUGGUCCCGGUGGAAUGUUCAGAGGUGGCCGUGGUGGAAACAG: 3.44
UGCUGUUAUCUGGAACUCCUACCUGUCCUGGAAGGCACAUCGGCUCUAAGCCUGCCUCACUCCAUCGUUUCCACCUUGCAGUGAUGCAGC: -2
GCAGGAAGUAAAAACAAAUGGAAAUGCUUCGGAUAGUGGCAGGGGUGGGGGUUGCUAAGGAAAGGGGGGGAUGGGAGUGGGUAAAGAGUU: 2.16
CCUCAAGUCCUGUGCUACACAUCGUAUGUACCGAAUCGGCCGGCCGGGGCCGGAAAGUAUUAUGUUACGCCGUUCGGAUCUGCACUUCCA: -1.01
CAAGUCCUGUGCUACACAUCGUAUGUACCGAAUCGGUUUUGGUUUUGGGUUUUGGAAAGUAUUAUGUUACGCCGUUCGGAUCUGCACUUC: -1.49
CACAGACAACACGCACCCACACAGACACAGAGGGAAGGGGUUGGGAUGGGGACAGGGUGCACAGCAGGGCGGGGUAGUACCCCAGCCCCU: -0.817

Study 4
Target: Interferon regulatory factor 7, full length, phosphomimetic (IRF7, Homo sapiens, UniProt Q92985, residues 1-503, S101K/S471D/S472D/S475D/S476D/S477D/S483D/S484D/S487D)
UniProt Q92985, sequence (whole entry, unmodified, looked up): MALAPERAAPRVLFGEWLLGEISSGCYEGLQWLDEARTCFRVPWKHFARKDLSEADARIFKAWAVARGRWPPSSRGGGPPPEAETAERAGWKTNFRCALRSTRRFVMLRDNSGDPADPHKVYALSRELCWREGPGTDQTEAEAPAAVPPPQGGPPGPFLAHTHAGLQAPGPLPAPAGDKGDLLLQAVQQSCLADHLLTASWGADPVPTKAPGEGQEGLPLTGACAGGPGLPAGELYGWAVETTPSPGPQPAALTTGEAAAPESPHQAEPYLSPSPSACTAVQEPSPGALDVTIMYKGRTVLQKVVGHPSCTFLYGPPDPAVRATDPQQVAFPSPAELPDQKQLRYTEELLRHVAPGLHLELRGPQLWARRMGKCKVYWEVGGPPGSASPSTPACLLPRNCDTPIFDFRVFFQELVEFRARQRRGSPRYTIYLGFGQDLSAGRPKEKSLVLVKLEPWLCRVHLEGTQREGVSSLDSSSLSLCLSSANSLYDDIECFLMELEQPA
Technique: protein-binding microarray
Form: double-stranded DNA, one strand shown
Medium: in vitro
Concentration: 250 nM
Notes: 60-bp whole probe
Added: salmon DNA 0.4 mg/ml
Relative to: random background probes
Direction: higher = stronger binding
Endpoint: log fluorescence
All sequences stand within: GCCTAGCAC … GTCTTGATTCGCTTGACGCTGCTG
ACTTTTTTTTTTCCCTGAAAGTGCTAG: 1.38 z-score
GACTATATCAGTCTCGAGACGTGCTAG: 0.555 z-score
TCTAACTTCCCAATGGTCTTGTGCTAG: 0.828 z-score
TTAGGTATCGACTATCGGTTTGTGCTA: 0.502 z-score
CTAGTTTTACTTTCTATCTCGTGCTAG: 2.93 z-score
GACGGTATCGTTATCGGGACGTGCTAG: 1.18 z-score
TCATTCCTCTTTTTTGTACTGTGCTAG: 2.32 z-score
GACGATATCAGACTGGAAACGTGCTAG: 0.0995 z-score
TTAGGTTTCCTACTGCTTGAGTGCTAG: 1.33 z-score
GACGATCTCAGTATCGACACGTGCTAG: -0.118 z-score
GATTTTTTCTGCTTAGAGCTGTGCTAG: 0.577 z-score
GACGAACTTAGACTGGAGACGTGCTAG: -0.219 z-score
CTAGGTTTCGACACTGGGTTAGTGCTA: 4.06 z-score
GACGATTTAAGTATCGAGACGTGCTAG: 0.0525 z-score
GACGATATTAGTTTCGAGACGTGCTAG: 5.13 z-score
TAATTTTTACTTTCTGAATGGTGCTAG: 1.04 z-score
TTAGGTTTCCTACTGCTTTCGTGCTAG: 1.09 z-score
ATAGGTATCGGGTATCGGTTAGTGCTA: 1.72 z-score

Study 5
Target: Sal-like protein 4, full length isoform A (SALL4, Homo sapiens, UniProt Q9UJQ4, residues 1-1053)
UniProt Q9UJQ4, sequence (whole entry, looked up): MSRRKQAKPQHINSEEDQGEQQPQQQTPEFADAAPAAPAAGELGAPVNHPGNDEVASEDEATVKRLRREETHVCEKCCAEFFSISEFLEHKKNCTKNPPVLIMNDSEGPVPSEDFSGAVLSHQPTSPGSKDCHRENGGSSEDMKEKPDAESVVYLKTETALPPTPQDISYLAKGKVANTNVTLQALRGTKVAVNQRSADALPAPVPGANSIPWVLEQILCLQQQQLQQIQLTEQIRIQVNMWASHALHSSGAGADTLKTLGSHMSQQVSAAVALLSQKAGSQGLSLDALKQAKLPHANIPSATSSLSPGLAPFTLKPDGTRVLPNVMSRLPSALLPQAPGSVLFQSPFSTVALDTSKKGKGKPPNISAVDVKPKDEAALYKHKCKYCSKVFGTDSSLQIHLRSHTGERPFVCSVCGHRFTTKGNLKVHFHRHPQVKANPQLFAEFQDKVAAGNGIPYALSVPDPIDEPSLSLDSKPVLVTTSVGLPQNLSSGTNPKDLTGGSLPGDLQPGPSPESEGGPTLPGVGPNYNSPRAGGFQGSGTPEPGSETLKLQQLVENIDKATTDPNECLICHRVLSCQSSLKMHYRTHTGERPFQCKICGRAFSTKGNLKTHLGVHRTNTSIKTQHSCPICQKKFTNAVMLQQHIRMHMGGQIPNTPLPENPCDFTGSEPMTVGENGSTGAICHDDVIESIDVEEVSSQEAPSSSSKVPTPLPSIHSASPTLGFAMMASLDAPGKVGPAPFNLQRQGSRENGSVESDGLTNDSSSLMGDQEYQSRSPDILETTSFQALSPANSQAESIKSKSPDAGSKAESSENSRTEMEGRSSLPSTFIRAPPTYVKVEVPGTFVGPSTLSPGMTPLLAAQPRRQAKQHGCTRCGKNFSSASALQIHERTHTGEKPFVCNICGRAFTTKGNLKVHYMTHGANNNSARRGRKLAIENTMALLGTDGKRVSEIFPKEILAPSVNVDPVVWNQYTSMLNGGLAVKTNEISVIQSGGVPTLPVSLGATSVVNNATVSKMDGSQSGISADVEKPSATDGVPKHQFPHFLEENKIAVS
Technique: universal PBM
Form: double-stranded DNA, one strand shown
Medium: in vitro
Concentration: 600 nM
Notes: 8-mer, flanks averaged, mean of replicates
Direction: higher = stronger binding
Endpoint: E-score
GCGAATCA: 0.0631
AACGATGA: 0.129
GCAGTGGC: -0.302
GGGATTGA: -0.0314
GCTAAACC: -0.246
ACCGAATC: -0.0737
CAAACATG: 0.19
AGTTATAC: 0.226
CATTTCTA: 0.237
ATCACGAT: 0.148
ACTGTAAC: 0.0804
CTCCCGCA: -0.18
GTCCCCAA: -0.102
TCAATTCA: 0.228
TATTGTCA: 0.258
GAGTGTAC: -0.0931
ATAGTAGC: 0.162

A few entries again (study 4):
GACGATCTCAGTATCGACACGTGCTAG: -0.118 z-score
GACGATATTAGTTTCGAGACGTGCTAG: 5.13 z-score
TCTAACTTCCCAATGGTCTTGTGCTAG: 0.828 z-score
TTAGGTTTCCTACTGCTTGAGTGCTAG: 1.33 z-score
GATTTTTTCTGCTTAGAGCTGTGCTAG: 0.577 z-score
TTAGGTATCGACTATCGGTTTGTGCTA: 0.502 z-score
GACTATATCAGTCTCGAGACGTGCTAG: 0.555 z-score
CTAGTTTTACTTTCTATCTCGTGCTAG: 2.93 z-score
GACGGTATCGTTATCGGGACGTGCTAG: 1.18 z-score
CTAGGTTTCGACACTGGGTTAGTGCTA: 4.06 z-score
ACTTTTTTTTTTCCCTGAAAGTGCTAG: 1.38 z-score
TTAGGTTTCCTACTGCTTTCGTGCTAG: 1.09 z-score
